Experimental data collected from several papers.
Numbered parts are unrelated; each lists some results of a single study. Changes are numbered by the printed parent chain.
Chain of UniProt Q99759 (whole entry, looked up): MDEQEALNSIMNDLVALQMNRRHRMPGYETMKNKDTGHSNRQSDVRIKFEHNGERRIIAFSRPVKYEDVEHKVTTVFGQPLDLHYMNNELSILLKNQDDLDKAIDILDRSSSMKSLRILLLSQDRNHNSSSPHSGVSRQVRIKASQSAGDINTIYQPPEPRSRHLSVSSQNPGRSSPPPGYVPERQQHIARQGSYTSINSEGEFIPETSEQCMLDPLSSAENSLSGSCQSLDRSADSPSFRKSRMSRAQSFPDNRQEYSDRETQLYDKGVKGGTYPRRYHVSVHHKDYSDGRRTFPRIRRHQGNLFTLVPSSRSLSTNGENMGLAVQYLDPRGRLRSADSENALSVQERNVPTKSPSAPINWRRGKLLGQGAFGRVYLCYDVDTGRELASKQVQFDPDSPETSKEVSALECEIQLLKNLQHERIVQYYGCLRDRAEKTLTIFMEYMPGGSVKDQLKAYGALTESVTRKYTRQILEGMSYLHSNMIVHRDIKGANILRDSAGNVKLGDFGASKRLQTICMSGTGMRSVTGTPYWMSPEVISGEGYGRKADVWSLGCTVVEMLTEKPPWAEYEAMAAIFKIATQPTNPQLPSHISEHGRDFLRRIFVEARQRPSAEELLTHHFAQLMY
Chain of UniProt P32298 (whole entry, looked up): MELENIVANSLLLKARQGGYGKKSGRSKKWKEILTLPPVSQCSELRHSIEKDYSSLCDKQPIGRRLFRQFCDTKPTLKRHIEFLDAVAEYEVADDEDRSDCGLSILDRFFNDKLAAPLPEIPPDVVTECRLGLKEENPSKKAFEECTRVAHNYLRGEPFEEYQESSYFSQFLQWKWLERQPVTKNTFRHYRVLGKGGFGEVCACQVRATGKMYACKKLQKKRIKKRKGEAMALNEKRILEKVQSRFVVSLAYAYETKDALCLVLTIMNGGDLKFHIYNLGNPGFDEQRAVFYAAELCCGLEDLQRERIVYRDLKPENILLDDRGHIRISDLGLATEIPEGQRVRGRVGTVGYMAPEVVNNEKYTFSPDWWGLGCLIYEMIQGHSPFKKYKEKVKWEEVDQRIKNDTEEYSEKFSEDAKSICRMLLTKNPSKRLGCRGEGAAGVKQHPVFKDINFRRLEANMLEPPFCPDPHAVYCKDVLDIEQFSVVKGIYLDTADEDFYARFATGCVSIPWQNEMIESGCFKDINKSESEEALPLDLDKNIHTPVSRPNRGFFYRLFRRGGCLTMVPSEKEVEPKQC
Chain of UniProt Q96L34 (whole entry, looked up): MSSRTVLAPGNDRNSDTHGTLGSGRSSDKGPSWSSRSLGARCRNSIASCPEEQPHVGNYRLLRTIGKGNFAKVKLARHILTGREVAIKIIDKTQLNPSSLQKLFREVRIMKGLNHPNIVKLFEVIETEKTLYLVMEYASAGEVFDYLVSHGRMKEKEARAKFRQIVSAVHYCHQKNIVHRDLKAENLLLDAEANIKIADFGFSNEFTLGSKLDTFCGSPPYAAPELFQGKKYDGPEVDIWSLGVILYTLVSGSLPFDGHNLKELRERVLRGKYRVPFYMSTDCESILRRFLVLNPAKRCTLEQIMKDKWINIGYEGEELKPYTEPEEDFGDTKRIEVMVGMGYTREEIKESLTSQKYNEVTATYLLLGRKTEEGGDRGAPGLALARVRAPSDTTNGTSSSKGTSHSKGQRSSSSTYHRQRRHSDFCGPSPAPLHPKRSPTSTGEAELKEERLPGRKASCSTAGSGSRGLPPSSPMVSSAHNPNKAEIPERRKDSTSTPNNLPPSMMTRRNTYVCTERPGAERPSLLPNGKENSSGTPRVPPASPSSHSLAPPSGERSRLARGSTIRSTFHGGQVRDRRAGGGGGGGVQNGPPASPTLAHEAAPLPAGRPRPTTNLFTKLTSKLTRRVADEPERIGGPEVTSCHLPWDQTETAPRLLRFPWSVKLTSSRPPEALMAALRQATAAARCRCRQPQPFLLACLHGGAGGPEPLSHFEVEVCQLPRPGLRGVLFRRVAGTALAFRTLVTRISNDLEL
Chain of UniProt Q7KZI7 (whole entry, looked up): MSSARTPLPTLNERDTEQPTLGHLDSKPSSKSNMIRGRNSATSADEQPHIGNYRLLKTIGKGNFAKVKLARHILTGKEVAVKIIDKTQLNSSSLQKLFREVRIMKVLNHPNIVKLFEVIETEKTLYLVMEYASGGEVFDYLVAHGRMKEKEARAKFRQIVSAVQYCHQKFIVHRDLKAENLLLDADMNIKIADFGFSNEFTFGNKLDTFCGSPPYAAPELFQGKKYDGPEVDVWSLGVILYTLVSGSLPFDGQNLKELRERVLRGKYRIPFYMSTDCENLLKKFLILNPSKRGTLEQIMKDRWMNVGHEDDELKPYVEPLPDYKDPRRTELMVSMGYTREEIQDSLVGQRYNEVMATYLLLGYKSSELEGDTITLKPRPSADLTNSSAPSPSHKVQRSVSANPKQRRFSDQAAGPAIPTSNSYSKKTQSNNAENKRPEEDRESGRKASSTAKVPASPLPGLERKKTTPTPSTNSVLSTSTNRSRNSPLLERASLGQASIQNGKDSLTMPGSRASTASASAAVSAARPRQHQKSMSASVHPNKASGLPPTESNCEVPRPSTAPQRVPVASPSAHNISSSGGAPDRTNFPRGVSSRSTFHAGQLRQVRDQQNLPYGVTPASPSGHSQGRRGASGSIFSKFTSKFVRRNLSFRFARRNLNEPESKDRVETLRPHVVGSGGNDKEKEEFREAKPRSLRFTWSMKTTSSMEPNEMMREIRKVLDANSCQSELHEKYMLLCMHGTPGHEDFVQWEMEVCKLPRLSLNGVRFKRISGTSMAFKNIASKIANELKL
Chain of UniProt P51956 (whole entry, looked up): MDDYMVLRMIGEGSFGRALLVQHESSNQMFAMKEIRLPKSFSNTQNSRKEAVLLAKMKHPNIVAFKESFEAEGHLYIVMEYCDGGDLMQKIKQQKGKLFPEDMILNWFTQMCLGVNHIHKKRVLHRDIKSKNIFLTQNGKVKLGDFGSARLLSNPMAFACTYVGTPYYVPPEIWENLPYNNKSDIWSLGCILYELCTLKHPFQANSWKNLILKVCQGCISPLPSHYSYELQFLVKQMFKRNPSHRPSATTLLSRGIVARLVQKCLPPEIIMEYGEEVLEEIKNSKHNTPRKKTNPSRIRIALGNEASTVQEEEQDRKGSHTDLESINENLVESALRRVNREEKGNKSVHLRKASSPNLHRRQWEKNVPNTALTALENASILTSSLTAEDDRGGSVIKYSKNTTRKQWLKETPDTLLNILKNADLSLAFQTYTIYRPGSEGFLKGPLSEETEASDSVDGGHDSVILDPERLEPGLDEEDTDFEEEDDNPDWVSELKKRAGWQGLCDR
Chain of UniProt Q16566 (whole entry, looked up): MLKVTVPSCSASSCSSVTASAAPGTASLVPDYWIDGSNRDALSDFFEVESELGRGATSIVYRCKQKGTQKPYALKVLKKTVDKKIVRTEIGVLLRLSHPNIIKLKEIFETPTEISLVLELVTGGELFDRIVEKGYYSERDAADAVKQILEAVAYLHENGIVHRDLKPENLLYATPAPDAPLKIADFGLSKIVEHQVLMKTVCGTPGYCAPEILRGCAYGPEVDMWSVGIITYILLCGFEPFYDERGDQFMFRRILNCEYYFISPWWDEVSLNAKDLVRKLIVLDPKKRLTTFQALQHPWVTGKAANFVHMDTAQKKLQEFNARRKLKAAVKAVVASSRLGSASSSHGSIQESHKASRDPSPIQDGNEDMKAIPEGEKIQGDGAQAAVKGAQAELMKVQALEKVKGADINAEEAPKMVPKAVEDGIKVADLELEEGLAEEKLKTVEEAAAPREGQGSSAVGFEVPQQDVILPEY
Chain of UniProt P00519 (whole entry, unmodified, looked up): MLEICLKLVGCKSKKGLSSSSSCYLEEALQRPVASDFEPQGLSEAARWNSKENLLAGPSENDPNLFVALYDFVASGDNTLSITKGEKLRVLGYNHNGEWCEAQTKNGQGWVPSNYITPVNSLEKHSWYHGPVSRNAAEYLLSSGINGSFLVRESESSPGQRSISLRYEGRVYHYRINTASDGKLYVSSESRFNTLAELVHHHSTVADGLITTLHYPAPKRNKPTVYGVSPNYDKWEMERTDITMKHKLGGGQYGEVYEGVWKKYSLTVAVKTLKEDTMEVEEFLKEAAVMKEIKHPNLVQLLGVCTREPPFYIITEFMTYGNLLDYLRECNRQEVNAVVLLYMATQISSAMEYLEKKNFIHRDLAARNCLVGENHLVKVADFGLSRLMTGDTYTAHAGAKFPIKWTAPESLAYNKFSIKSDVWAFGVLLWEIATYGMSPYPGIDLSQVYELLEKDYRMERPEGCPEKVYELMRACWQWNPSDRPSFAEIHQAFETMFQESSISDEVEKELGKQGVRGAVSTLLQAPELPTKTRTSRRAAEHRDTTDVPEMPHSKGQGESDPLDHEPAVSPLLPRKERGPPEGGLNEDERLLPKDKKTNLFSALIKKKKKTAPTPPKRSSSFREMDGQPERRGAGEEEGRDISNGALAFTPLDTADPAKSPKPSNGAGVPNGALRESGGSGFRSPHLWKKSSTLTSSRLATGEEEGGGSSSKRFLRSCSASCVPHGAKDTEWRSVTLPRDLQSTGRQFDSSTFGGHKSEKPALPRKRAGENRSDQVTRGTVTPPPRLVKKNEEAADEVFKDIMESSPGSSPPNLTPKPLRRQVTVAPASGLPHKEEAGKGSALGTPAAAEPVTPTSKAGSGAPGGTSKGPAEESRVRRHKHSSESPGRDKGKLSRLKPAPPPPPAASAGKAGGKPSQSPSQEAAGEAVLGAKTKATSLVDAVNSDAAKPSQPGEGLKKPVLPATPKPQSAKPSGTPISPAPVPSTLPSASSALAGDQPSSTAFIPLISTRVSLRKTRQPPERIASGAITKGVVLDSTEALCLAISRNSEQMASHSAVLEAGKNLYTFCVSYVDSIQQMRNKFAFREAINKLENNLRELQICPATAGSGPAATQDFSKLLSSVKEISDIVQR

Study 1 — technique: DHFR PCA, deep sequencing; medium: yeast; together with: (+)-ABA 0.11 µM; relative to: wild-type fitted maximum; reading: higher = stronger binding
Target: ABI1, truncated, D143A, DHFR fusion (Arabidopsis thaliana)
Setting: methotrexate growth selection, single substitutions
Starting sequence: PYL1, truncated, DHFR fusion (Arabidopsis thaliana); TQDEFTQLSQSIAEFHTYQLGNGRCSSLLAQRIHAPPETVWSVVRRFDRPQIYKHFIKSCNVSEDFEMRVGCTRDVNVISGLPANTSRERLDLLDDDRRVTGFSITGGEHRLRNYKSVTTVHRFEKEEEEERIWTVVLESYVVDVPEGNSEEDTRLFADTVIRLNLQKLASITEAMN
For `T101W`, “relative binding score” read 1.44%.
`T39Y` — result for “relative binding score”: 7.21%.
`R123P`: “relative binding score” 30%.
For `L138K`, “relative binding score” read -8.27%.
Under “relative binding score”, `I105F` is recorded as 0.853%.
Under “relative binding score”, `Y53G` is recorded as -3.55%.
Under “relative binding score”, `Q31K` is recorded as 19.2%.
`V100D`: “relative binding score” -11.6%.

Study 2 — read-out: cell-free assay; technique: competition with immobilised ligand; tested at: 1 µM
SMILES: O=C1CCc2cc(Nc3cc(OC4CCOCC4)c([N+](=O)[O-])cc3Cl)ccc2N1
The remaining binding was 74% (Tyrosine-protein kinase ABL1, non-phosphorylated (ABL1, Homo sapiens, UniProt P00519, F317L)).
The remaining binding was 95% (Mitogen-activated protein kinase kinase kinase 3 (MAP3K3, Homo sapiens, UniProt Q99759)).
It gave 78% for remaining binding (Mitogen-activated protein kinase kinase kinase 15 (MAP3K15, Homo sapiens, UniProt Q6ZN16)).

Study 3 — read-out: enzyme activity; action: inhibitor; tested at: 0.5 µM; relative to: control
Structure (SMILES): Cc1ccc(NC(=O)c2ccc(CN3CCN(C)CC3)cc2)cc1Nc1nccc(-c2cccnc2)n1
For Cyclin-dependent kinase 1, with cyclin A (CDK1, Homo sapiens, UniProt P06493): remaining activity read 101%.
The remaining activity was 102% (Calcium/calmodulin-dependent protein kinase type IV (CAMK4, Homo sapiens, UniProt Q16566)).
Mitogen-activated protein kinase 1 (MAPK1, Homo sapiens, UniProt P28482) — remaining activity: 89.9%.
It gave 105% for remaining activity (G protein-coupled receptor kinase 4 (GRK4, Homo sapiens, UniProt P32298)).
Serine/threonine-protein kinase MRCK beta (CDC42BPB, Homo sapiens, UniProt Q9Y5S2) — remaining activity: 97.1%.
For Serine/threonine-protein kinase DCLK2 (DCLK2, Homo sapiens, UniProt Q8N568): remaining activity read 102%.
It gave 95.7% for remaining activity (cGMP-dependent protein kinase 2 (PRKG2, Homo sapiens, UniProt Q13237)).
MAP/microtubule affinity-regulating kinase 4 (MARK4, Homo sapiens, UniProt Q96L34) — remaining activity: 102%.
It gave 104% for remaining activity (Dual specificity mitogen-activated protein kinase kinase 1 (MAP2K1, Homo sapiens, UniProt Q02750)).
It gave 94.7% for remaining activity (Serine/threonine-protein kinase MARK2 (MARK2, Homo sapiens, UniProt Q7KZI7)).
It gave 97% for remaining activity (Serine/threonine-protein kinase Nek3 (NEK3, Homo sapiens, UniProt P51956)).
The remaining activity was 103% (Cyclin-dependent kinase 9, with cyclin K (CDK9, Homo sapiens, UniProt P50750)).
It gave 27.1% for remaining activity (Discoidin domain-containing receptor 2 (DDR2, Homo sapiens, UniProt Q16832)).

Study 4 — target: CCNB1, cyclin fold, Cln2 fusion (human); technique: yeast growth competition, sequencing; medium: yeast; setting: weak parent motif; relative to: not given; reading: higher = stronger binding
Starting sequence: SCAPER docking peptide (human); SNARRSLNFGGST
For `SNARRSLNFPGST [G10P]`, “normalised enrichment score” read 0.652.
`SNSRRSLNFGGST [A3S]` — result for “normalised enrichment score”: -0.429.
Under “normalised enrichment score”, `SNARRSLRFGGST [N8R]` is recorded as 0.717.
Under “normalised enrichment score”, `SNNRRSLNFGGST [A3N]` is recorded as 1.06.
`SNARWSLNFGGST [R5W]`: “normalised enrichment score” 0.0779.
Under “normalised enrichment score”, `SNARCSLNFGGST [R5C]` is recorded as 0.126.
For `SNARRSLNFFGST [G10F]`, “normalised enrichment score” read 0.114.
`SNARRSANFGGST [L7A]` — result for “normalised enrichment score”: 1.11.
